Results gathered from unrelated publications.
Every numbered part comes from another study and shows a few of its results, in no order. Substitutions count along the parent as printed.
Sequence of UniProt Q84WU6 (whole entry, looked up): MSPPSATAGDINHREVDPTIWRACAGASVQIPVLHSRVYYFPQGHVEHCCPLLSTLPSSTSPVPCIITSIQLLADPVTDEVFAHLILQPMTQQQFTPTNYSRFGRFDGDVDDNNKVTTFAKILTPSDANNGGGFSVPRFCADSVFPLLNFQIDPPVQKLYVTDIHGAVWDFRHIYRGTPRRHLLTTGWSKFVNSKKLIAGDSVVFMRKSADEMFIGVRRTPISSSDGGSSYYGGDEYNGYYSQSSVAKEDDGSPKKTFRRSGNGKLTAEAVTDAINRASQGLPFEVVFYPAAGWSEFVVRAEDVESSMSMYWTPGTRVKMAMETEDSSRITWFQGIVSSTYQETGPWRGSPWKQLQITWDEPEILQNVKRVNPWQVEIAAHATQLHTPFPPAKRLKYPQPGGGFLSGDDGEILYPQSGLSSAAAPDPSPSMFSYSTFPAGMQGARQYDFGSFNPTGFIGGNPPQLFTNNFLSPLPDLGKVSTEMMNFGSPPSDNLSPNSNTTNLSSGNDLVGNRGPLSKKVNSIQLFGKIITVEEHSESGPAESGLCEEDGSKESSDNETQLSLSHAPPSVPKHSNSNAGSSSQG
Sequence of UniProt Q9C7I9 (whole entry, looked up): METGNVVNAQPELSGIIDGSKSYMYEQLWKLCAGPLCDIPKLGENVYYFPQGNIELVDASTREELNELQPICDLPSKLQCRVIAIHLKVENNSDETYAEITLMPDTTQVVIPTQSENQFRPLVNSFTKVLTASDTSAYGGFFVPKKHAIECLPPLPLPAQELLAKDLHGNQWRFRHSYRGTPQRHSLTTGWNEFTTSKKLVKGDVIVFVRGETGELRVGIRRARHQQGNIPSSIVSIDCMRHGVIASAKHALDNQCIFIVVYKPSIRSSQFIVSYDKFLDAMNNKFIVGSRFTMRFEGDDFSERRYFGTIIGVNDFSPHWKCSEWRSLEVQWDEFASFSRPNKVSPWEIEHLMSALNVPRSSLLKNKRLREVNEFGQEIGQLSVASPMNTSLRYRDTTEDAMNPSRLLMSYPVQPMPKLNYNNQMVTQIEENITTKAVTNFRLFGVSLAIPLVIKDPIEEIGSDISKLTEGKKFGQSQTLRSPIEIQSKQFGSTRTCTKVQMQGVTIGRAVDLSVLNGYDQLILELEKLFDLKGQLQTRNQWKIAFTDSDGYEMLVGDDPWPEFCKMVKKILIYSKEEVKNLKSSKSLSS

Set 1 — target: FOSL1, bZIP domain (human); method: DHFR protein complementation; sample: yeast; reference: wild-type JUN-FOS pair; reading: higher = stronger binding
Notes: single substitutions, most at no-binding floor
Starting sequence: JUN, bZIP domain (human); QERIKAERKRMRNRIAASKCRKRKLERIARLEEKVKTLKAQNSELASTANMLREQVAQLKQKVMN; partner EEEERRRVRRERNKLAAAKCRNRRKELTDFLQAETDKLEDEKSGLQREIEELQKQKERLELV
Change	binding fitness [natural log]
S43W	-0.59
K34M	-0.521
A49Q	-1.15
M51E	-0.354
K36S	-0.426
K39T	-0.503
E44L	-0.551
V35E	-1.33

Set 2 — target: CCNE1, cyclin fold, Cln2 fusion (human); method: yeast growth competition, sequencing; sample: yeast; notes: strong parent motif; reference: not given; reading: higher = stronger binding; starting sequence: viral docking peptide; YKVKRRLVFGADD
Change	normalised enrichment score
D12V	5.4
K4G	1.78
G10S	5.5
V8E	6.63
A11Q	5.92
D12M	5.75
R5L	0.155
K4D	0.577
R6T	3.23
R6H	1.85
G10M	5.19
V8Y	6.01
V3R	0.41
V8I	5.71
V8S	6.45
R6Y	1.59
K2I	4.6
L7E	0.22
R6L	1.85
V3M	1.04
D12I	4.7
K4V	5.48
G10D	6.75
L7I	2.67
G10P	6.44

Set 3 — method: protein binding microarray; form: double-stranded DNA, one strand shown; sample: in vitro; concentration: not given; reference: not given; reading: higher = stronger binding
Target: Histone acetyltransferase KAT6A, winged helix 2, GST fusion (KAT6A, Homo sapiens, UniProt Q92794, residues 85-181)
Notes: 8-mer, flanks averaged, mean of 2 arrays, mostly near background
Construct (chain): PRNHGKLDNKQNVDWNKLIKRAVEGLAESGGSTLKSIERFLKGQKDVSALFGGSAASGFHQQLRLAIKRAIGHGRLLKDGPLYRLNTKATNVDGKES
Sequence	E-score
CGCATACG	0.19
CGTGCCAC	-0.000375
AACTTATG	0.108
CGATACCG	-0.046
CGCGGCAA	0.119
AGGCCATC	-0.0525
CATAACAC	-0.0493
ACATCCGG	0.165

Set 4 — effect on: peptide-MHC binding; form: peptide; concentration: concentration not given
Target: HLA class I histocompatibility antigen, A alpha chain, allele A*80:01 (Homo sapiens, UniProt P04439)
Molecule	binding
HQAIISDVL	inactive
GRYNLISPK	inactive
VMGVIGFGF	inactive

Set 5 — method: protein-binding microarray; form: double-stranded DNA, one strand shown; sample: in vitro; concentration: not given; reading: higher = stronger binding
Target: Protein C-ets-1 (ETS1, Homo sapiens, UniProt P14921, residues 1-441, K379A, full length assumed)
Sequence of UniProt P14921 (whole entry, unmodified, looked up): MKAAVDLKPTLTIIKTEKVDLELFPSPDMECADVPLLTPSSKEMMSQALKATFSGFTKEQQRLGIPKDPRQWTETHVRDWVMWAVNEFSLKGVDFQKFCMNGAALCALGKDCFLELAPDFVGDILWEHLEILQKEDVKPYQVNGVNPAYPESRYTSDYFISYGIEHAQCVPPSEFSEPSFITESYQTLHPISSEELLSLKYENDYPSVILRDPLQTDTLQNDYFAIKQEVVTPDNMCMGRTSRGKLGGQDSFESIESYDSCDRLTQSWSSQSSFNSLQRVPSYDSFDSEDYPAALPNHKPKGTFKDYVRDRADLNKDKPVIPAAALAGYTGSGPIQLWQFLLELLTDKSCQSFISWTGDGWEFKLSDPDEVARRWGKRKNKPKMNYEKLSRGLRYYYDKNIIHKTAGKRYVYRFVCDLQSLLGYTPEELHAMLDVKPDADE
Notes: k-mer, scored over probes, only values ≥0.25
Sequence	E-score
GTTGTATA	0.31
AACGACGG	0.31
ACCGGATC	0.313
ACCAACAT	0.254
AACCGGCG	0.414
ACGACAAA	0.272
CCGGAATA	0.269
ATTCCGGA	0.273

Mixed results
Molecule	partner	method	notes	reference	reading	measurement	value
ARF17 (Arabidopsis thaliana, UniProt Q84WU6)	ARF20 484-590 (Arabidopsis thaliana, UniProt Q9C7I9)	two-hybrid	weak activation fusion	out of 4 tests	higher = firmer interaction	positive tests	0

Repeated from above (set 2):
Change	normalised enrichment score
R6T	3.23
V8E	6.63
R6L	1.85
